{"data": "Measurements collected from several papers", "note": "Compare with care: the assays were run in different laboratories. ± gives the spread as reported."}
{"Compound": "CCc1ccc(CC/C=C/c2ccc3c(c2)C(=O)CC3)cc1", "system": "Sprague-Dawley rat, male, blood", "setting": "oral, 120 mg/kg/day, 14 days", "measurement": "MCV", "value": "63.2 fL"}
{"Compound": "Oc1c(Cl)cc2c(c1Cl)Oc1cc(Cl)c(Cl)cc1O2", "assay": "ultrafiltration", "system": "cow milk whey", "setting": "20 nM nominal in whole milk", "measurement": "dose fraction in permeate", "value": "18.6%"}
{"Compound": "CCS(=O)(=O)Nc1ccc(Oc2ccc(F)cc2F)c(-c2cn(C)c(=O)c3[nH]ccc23)c1", "assay": "fungal sepsis leading to discontinuation", "system": "human, relapsed/refractory AML", "setting": "oral, dose not given", "measurement": "treatment-emergent adverse events", "value": "5%"}
{"Compound": "COc1ccc([C@@H](O)c2cc(-c3ncnc4cc(N5CCOCC5)ccc34)c(F)cc2Cl)nn1", "system": "patients, advanced solid tumours", "setting": "oral, 400 mg twice daily, treatment-emergent, together with: avelumab", "measurement": "metabolism, nutrition disorders incidence", "value": "4%"}
{"Compound": "CC(=O)NCC(=O)NCC(=O)N[C@H](C(=O)N[C@@H](Cc1ccc(O)cc1)C(=O)N[C@@H](CO)C(=O)N[C@H]1CSSC[C@@H](C(=O)N[C@@H](CCCNC(=N)N)C(=O)N2CCC[C@H]2C(=O)N[C@@H](CCC(N)=O)C(=O)N[C@@H](CCCNC(=N)N)C(=O)NCC(=O)NCCC(=O)N[C@@H](CCCCNC(=O)CN(CC(=O)NCCCC[C@H](NC(=O)CCNC(=O)CNC(=O)[C@H](CCCNC(=N)N)NC(=O)[C@H](CCC(N)=O)NC(=O)[C@@H]2CCCN2C(=O)[C@H](CCCNC(=N)N)NC(=O)[C@@H]2CSSC[C@H](NC(=O)[C@H](CO)NC(=O)[C@H](Cc3ccc(O)cc3)NC(=O)[C@@H](NC(=O)CNC(=O)CNC(C)=O)[C@@H](C)O)C(=O)N[C@@H](Cc3c[nH]cn3)C(=O)N[C@@H](Cc3ccccc3)C(=O)NCC(=O)N[C@@H](C)C(=O)N[C@@H](CC(C)C)C(=O)N[C@@H]([C@@H](C)O)C(=O)N[C@@H](Cc3c[nH]c4ccccc34)C(=O)N[C@@H](C(C)C)C(=O)N2)C(N)=O)C(=O)CCN)C(N)=O)NC(=O)[C@H](C(C)C)NC(=O)[C@H](Cc2c[nH]c3ccccc23)NC(=O)[C@H]([C@@H](C)O)NC(=O)[C@H](CC(C)C)NC(=O)[C@H](C)NC(=O)CNC(=O)[C@H](Cc2ccccc2)NC(=O)[C@H](Cc2c[nH]cn2)NC1=O)[C@@H](C)O", "assay": "MSD immunoassay", "system": "BALB/c mice, healthy female, serum", "setting": "subcutaneous, 0.08 mg/kg, 0 h, LLOQ 2.0 ng/mL", "measurement": "serum concentration", "value": "not detected"}
{"Compound": "COc1ncccc1-c1cnn2ccc(N3CCN(C(=O)OC(C)C)CC3)nc12", "system": "rat, rotarod test, brain", "setting": "30 mg/kg, 180 min", "measurement": "drug concentration", "value": "12 µM"}
{"Compound": "CCC[C@@](N)(CO)CCc1ccc(OCCCCCC(C)C)cc1", "system": "male hound dog", "setting": "oral, 2.5 mg/kg, capsule, IV dose 1.0 mg/kg", "measurement": "oral bioavailability", "value": "16%"}
{"Compound": "CN1CC[C@@H](c2c(O)cc(O)c3c(=O)cc(-c4ccc(C(F)(F)F)cc4Cl)oc23)[C@@H]1CO", "assay": "measured: Pneumonia", "system": "relapsed B-cell malignancies", "setting": "oral, 200 mg, grade 3-4, intermittent dosing", "measurement": "patients with adverse event", "value": "0%"}
{"Compound": "Cc1cc(C)nc(Nc2ncc(C(=O)NCCc3c(C)[nH]c4ccccc34)cn2)c1", "system": "beagle dog", "measurement": "oral bioavailability", "value": "30%"}
{"Compound": "Nc1ncnc2c1ncn2[C@@H]1O[C@@H]2COP(=O)([S-])O[C@@H]3[C@H](O)[C@@H](COP([O-])(=S)O[C@H]2[C@H]1O)O[C@H]3n1cnc2c(N)ncnc21.[Na+].[Na+] (stereo partly drawn)", "system": "non-tumor-bearing mice, serum", "setting": "intravenous, 1 mg/kg, toxicity study", "measurement": "AST", "value": "201 ± 31.7 U/L"}
{"Compound": "C[C@@H](NC(=O)N1C(=O)[C@H](Cc2ccnc(N)c2)[C@H]1C(=O)O)C1CCCCC1", "system": "healthy adult Chinese volunteers", "setting": "continuous intravenous infusion, 1.0 mg/kg/h, 5-day infusion, CTCAE 5.0 grading", "measurement": "incidence of drug-related AEs", "value": "0%"}
{"Compound": "C[C@]1(CO)Cc2ncn(-c3ccc(C#N)c(Cl)c3)c2C(=O)O1", "system": "human", "setting": "10 mg multiple doses, fasted", "measurement": "subjects with drug-related fatigue", "value": "0%"}
{"Compound": "CN(C)C1(CNC(=O)c2ccc3c(c2)CCN3C(=O)c2ccccc2)CCOCC1", "system": "ICR mouse, male, plasma", "setting": "intraperitoneal, 30 mg/kg", "measurement": "AUC(0-last)", "value": "241 ± 40 ng·h/mL"}
{"Compound": "COc1cc2c(Oc3ccc4[nH]c(C)cc4c3F)ccnc2cc1OCC1(N)CC1", "system": "paediatric recurrent refractory sarcoma", "setting": "8 mg", "measurement": "grade 1 or 2 Hypothyroidism", "value": "25%"}
{"Compound": "O=C(O)CCC(CP(=O)(O)O)C(=O)O (stereo not drawn)", "system": "rat plasma", "setting": "8 µg/mL, 4 h, room temperature, bench-top stability", "measurement": "measured concentration", "value": "8.84 ± 0.18 µg/mL"}
{"Compound": "O=C(Nc1ccccc1)C1CCN(C(=O)Oc2cccnc2)CC1", "assay": "Bond-Lader VAS", "system": "healthy women", "setting": "100 mg", "how to read": "reference: pre-dose baseline, direction not given", "measurement": "change in Calm-excited score", "value": -19}
{"Compound": "CC(C)NCCCC[C@@H]1NC(=O)[C@H](Cc2ccc(O)cc2)NC(=O)[C@H](Cc2ccccc2)NC(=O)CC[C@H](C(=O)N[C@@H](CCCCNC(C)C)C(=O)N[C@@H](CCCCNC(=O)[C@H](CCC(=O)O)NC(=O)[C@H](CCC(=O)O)NC(=O)[C@H](CCC(=O)O)NC(=O)CN2CCN(CC(=O)O)CCN(CC(=O)O)CC2)C(N)=O)NC(=O)CNC(=O)[C@H](Cc2ccc3ccccc3c2)NC(=O)[C@@H](CCCNC(=N)N)NC1=O [fluorine-18 labelled]", "system": "mouse, plasma", "setting": "75 min, post injection", "measurement": "intact parent fraction", "value": "94 ± 1.89%"}
{"Compound": "CC(C)(c1ccccc1)c1cc(-n2nc3ccccc3n2)c(O)c(C(C)(C)c2ccccc2)c1", "assay": "exposure assessment", "system": "human, age 16-21 years", "setting": "concentration not given, spray sunscreen, 95th percentile", "measurement": "daily dermal uptake, percentile", "value": "50.6 ng/kg body weight/day"}
{"Compound": "O=C(Nc1ccc2c(c1)B(O)OC2)c1ccc(Oc2ccccc2)cc1", "assay": "PAMPA", "system": "pre-coated trilayer membrane", "setting": "200 µM, 5 h, pH 7.4, acceptor plate, PBS", "measurement": "acceptor concentration", "value": "3.5 ± 0.6 µM"}
{"Compound": "CC(C)CC(=O)OC[C@H]1O[C@@](C#N)(c2ccc3c(N)ncnn23)[C@H](O)[C@@H]1O", "system": "rat whole blood", "setting": "5 µM, 15 min", "measurement": "remaining compound", "value": "0.038 ± 0.014%"}
{"Compound": "CCN1CCN(Cc2ccc(Nc3ncc(F)c(-c4cc(F)c5nc6n(c5c4)[C@H](C)CCC6)n3)nc2)CC1", "system": "advanced solid tumour patients", "setting": "dose not given, Phase Ia monotherapy", "measurement": "Leukopenia incidence, grade ≥3", "value": "4.2%"}
{"Compound": "CC(=O)c1c(C)c2cnc(Nc3ccc(C4CCN(CCS(C)(=O)=O)CC4)cn3)nc2n(C2CCCC2)c1=O", "system": "human patients, plasma", "setting": "oral, 75 mg twice daily, day 1 single dose, together with: fulvestrant", "measurement": "AUC(0-t)", "value": "866 ng·h/mL"}
{"Compound": "CCN1[C@@H](C(=O)NC23CCC(C(=O)O)(CC2)CC3)[C@H](c2cccc(Cl)c2F)[C@]2(C(=O)Nc3cc(Cl)ccc32)C12CCCCC2", "system": "patients with advanced solid tumours", "setting": "oral, 200 mg", "measurement": "grade ≥3 Neutropenia incidence", "value": "0%"}
{"Compound": "C[C@]1(O)C[C@@](N)(c2ccc(-c3nc4n(c3-c3ccccc3)COc3ccncc3-4)cc2)C1", "system": "human, advanced or metastatic solid tumours", "setting": "16 mg once daily, dose-response cohort", "measurement": "patients with Stomatitis TEAE", "value": "0%"}
{"Compound": "Cl.Cn1c(=O)n(CCCCN2CCC3(CC2)OCc2ccccc23)c2ccccc21", "system": "male Sprague-Dawley rat, brain", "setting": "intravenous, 10 mg/kg", "measurement": "elimination rate constant", "value": "3.61e-05 s⁻¹"}
{"Compound": "CO[C@H]1C[C@@H]2CC[C@@H](C)[C@@](O)(O2)C(=O)C(=O)N2CCCC[C@H]2C(=O)O[C@H]([C@H](C)C[C@@H]2CC[C@@H](OC(=O)NCCOCCOCCOCCOCCOCCOCCOCCOCCC(=O)N3CCc4cc(Cn5nc(-c6ccc7oc(N)nc7c6)c6c(N)ncnc65)ccc4C3)[C@H](OC)C2)C[C@@H](O)[C@H](C)/C=C(\\C)[C@@H](O)[C@@H](OC)C(=O)[C@H](C)C[C@H](C)/C=C/C=C/C=C/1C", "assay": "phase 1 dose escalation, measured: neutropenia", "system": "advanced solid tumour patients", "setting": "intravenous, 8 mg weekly, grade ≥3", "measurement": "dose-reducing adverse events", "value": "0%"}
{"Compound": "CCC[C@H]1CC[C@H](c2ccc(-c3ccc(F)cc3)cc2)CC1", "system": "human mother-newborn pairs, maternal serum", "measurement": "mean serum concentration", "value": "0.55 ng/mL"}
